Measurements of several laboratories.
Every numbered part comes from another study and shows a few of its results, in no order. “And” joins repeats or separate records; there may be more than shown.
Chain of UniProt P42336 (whole entry, unmodified, looked up): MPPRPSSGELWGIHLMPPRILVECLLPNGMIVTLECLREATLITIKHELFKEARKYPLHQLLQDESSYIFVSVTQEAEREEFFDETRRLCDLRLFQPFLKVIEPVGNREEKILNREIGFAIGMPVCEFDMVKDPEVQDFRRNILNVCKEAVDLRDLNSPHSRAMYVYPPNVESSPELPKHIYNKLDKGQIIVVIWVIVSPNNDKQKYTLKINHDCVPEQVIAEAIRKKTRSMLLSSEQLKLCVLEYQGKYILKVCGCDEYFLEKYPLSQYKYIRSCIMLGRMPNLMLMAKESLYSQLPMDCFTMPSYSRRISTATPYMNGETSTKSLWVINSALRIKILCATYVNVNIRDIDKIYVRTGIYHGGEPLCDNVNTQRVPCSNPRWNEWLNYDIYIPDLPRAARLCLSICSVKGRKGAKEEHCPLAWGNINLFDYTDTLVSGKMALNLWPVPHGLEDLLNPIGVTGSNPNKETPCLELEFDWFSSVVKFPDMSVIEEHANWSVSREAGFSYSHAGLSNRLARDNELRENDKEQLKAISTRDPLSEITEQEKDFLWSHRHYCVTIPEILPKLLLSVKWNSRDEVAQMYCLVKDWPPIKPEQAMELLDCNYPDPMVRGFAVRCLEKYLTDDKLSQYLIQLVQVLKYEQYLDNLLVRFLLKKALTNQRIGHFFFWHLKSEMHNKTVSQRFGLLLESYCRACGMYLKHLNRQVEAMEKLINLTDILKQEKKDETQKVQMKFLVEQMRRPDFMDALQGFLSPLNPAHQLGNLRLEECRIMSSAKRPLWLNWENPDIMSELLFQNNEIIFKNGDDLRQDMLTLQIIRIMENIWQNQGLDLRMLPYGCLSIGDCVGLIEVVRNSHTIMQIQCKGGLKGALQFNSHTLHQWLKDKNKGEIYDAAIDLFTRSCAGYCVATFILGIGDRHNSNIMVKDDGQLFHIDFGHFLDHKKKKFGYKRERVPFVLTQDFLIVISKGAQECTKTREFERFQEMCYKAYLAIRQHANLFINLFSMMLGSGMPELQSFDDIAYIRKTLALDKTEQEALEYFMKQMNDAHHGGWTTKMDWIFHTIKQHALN
Chain of UniProt P08069 (whole entry, looked up): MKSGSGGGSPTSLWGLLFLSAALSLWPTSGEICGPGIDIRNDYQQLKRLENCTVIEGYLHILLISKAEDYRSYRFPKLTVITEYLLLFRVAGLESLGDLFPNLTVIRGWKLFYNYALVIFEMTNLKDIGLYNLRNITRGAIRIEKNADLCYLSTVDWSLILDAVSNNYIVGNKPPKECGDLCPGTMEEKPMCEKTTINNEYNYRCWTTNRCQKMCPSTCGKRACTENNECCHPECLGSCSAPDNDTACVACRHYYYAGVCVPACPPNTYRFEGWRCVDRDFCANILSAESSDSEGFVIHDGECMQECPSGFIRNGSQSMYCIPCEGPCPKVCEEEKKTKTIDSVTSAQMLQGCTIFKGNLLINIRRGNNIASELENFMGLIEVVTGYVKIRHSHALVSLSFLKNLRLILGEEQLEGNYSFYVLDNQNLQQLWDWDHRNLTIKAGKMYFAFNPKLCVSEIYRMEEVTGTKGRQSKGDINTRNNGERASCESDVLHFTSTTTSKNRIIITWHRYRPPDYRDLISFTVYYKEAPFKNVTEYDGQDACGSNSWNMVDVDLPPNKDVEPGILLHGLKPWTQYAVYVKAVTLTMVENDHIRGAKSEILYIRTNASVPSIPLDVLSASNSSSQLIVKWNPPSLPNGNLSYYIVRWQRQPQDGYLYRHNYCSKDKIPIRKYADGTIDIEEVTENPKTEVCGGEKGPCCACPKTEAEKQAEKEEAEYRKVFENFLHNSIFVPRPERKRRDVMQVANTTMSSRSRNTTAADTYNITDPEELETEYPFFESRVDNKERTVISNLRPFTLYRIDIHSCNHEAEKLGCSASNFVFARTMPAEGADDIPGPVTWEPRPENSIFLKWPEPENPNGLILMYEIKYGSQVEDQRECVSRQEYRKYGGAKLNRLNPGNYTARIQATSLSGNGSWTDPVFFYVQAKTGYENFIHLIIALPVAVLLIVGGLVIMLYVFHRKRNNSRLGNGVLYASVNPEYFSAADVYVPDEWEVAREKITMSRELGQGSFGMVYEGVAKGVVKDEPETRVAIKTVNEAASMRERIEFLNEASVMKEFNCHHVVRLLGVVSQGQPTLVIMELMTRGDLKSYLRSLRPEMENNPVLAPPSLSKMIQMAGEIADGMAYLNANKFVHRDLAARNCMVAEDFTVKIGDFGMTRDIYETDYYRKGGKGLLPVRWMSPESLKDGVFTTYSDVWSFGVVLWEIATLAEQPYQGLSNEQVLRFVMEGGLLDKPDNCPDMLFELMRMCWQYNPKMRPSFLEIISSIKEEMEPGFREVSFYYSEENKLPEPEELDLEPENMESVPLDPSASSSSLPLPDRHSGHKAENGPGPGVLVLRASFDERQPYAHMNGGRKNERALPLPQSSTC
Chain of UniProt O15146 (whole entry, looked up): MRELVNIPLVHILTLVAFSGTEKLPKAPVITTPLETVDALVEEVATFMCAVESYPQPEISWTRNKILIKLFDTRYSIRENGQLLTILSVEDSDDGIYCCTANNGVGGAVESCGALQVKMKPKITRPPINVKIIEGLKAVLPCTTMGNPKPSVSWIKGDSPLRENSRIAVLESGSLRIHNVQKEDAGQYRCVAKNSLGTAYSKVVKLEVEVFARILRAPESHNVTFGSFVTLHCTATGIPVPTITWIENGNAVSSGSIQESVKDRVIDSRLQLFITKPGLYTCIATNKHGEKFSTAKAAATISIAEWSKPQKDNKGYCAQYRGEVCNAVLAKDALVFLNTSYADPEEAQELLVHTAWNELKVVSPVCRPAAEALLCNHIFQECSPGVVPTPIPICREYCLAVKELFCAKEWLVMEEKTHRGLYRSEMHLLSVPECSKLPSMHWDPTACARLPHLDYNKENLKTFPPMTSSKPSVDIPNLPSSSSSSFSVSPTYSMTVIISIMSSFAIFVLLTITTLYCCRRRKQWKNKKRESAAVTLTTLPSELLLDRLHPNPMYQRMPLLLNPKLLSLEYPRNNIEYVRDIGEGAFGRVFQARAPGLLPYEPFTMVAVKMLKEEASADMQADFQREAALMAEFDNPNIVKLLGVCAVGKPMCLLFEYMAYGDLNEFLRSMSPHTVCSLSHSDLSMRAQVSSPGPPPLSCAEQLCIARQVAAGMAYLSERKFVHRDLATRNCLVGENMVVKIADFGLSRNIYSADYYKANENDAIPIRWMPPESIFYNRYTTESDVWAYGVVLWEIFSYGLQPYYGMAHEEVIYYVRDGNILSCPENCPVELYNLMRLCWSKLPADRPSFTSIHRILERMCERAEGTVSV
Chain of UniProt P36894 (whole entry, looked up): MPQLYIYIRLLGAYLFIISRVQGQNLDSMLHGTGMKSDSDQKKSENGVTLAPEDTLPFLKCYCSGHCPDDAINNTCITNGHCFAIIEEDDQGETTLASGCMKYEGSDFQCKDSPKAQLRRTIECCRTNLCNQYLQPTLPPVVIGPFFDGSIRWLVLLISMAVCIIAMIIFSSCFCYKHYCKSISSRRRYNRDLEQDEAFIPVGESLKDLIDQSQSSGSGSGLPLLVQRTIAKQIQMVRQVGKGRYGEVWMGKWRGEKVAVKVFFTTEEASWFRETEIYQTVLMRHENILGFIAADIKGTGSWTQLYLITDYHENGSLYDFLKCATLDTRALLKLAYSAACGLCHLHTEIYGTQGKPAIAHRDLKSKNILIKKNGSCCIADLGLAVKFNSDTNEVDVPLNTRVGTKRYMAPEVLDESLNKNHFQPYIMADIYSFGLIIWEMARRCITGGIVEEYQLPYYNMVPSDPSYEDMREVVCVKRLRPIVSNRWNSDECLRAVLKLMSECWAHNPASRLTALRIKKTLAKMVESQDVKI
Chain of UniProt P49760 (whole entry, looked up): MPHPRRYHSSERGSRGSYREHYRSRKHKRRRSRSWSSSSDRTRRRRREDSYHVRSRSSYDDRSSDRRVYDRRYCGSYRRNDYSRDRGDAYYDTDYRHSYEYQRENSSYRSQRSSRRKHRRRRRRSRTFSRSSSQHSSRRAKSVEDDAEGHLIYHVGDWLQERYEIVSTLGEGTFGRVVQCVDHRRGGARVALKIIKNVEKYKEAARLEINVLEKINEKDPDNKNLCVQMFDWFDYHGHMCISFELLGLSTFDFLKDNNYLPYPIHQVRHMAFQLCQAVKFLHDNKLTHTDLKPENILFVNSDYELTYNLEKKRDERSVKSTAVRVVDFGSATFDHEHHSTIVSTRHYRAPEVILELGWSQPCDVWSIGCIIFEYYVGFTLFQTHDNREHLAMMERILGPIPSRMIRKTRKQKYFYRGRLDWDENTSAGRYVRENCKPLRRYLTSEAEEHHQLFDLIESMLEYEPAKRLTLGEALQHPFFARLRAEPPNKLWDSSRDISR
Chain of UniProt Q14012 (whole entry, looked up): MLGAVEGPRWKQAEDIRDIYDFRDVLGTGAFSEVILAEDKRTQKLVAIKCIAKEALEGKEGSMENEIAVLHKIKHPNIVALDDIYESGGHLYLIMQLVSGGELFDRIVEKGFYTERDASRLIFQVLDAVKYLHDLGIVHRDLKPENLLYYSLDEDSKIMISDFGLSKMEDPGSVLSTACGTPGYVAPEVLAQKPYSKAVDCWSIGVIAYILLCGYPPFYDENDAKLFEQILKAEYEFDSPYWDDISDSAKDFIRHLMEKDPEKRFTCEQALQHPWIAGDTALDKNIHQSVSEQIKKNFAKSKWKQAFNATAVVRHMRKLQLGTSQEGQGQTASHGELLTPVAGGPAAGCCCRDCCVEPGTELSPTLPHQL
Chain of UniProt Q9HBY8 (whole entry, looked up): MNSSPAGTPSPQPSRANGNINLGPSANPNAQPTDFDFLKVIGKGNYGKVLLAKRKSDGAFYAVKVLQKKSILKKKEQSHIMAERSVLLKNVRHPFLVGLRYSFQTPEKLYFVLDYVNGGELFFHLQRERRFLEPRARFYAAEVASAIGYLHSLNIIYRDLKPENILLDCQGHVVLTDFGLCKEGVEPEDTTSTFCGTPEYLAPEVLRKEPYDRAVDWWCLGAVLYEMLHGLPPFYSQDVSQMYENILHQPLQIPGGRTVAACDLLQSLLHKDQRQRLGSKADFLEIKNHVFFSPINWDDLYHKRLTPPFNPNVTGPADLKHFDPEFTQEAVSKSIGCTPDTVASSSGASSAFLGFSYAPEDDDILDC

Study 1 — cell line: HaCaT; tested at: 100 µM; time: 36 h
SMILES | viability [%]
O=C(O)CCC(=O)Nc1ccc(S(=O)(=O)Nc2nccs2)cc1 | 97.2
Cn1c([N+](=O)[O-])cnc1COC(N)=O | 94.8
CCCS(=O)(=O)Nc1ccc(F)c(C(=O)c2c[nH]c3ncc(-c4ccc(Cl)cc4)cc23)c1F | 7.05
Cc1onc(-c2ccccc2Cl)c1C(=O)N[C@@H]1C(=O)N2[C@@H]1SC(C)(C)[C@@H]2C(=O)O | 91.3
CC1CNc2c(cccc2S(=O)(=O)N[C@@H](CCCNC(=N)N)C(=O)N2CC[C@@H](C)C[C@@H]2C(=O)O)C1 (some centres unmarked) | 84.2
CCS(=O)(=O)CCn1c([N+](=O)[O-])cnc1C | 93

Study 2 — technique: competition with immobilised ligand; tested at: 1 µM
SMILES: Cc1c(C(=O)O)cc(-c2ccc(C3CCNCC3)cc2)c2ccc(-c3ccc(C(F)(F)F)cc3)cc12
target | effect on | remaining binding [%]
Serine/threonine-protein kinase Nek6 (NEK6, Homo sapiens, UniProt Q9HC98) | binding | 100
Serine/threonine-protein kinase Nek1 (NEK1, Homo sapiens, UniProt Q96PY6) | binding | 100
Phosphatidylinositol 4,5-bisphosphate 3-kinase catalytic subunit alpha isoform (PIK3CA, Homo sapiens, UniProt P42336, H1047L) | cell-free assay | 100
Dual specificity mitogen-activated protein kinase kinase 1 (MAP2K1, Homo sapiens, UniProt Q02750) | binding | 100
Mast/stem cell growth factor receptor Kit (KIT, Homo sapiens, UniProt P10721, V559D/V654A) | binding | 100
Muscle, skeletal receptor tyrosine-protein kinase (MUSK, Homo sapiens, UniProt O15146) | binding | 100
Serine/threonine-protein kinase MRCK alpha (CDC42BPA, Homo sapiens, UniProt Q5VT25) | cell-free assay | 100
Vascular endothelial growth factor receptor 3 (FLT4, Homo sapiens, UniProt P35916) | cell-free assay | 100
Bone morphogenetic protein receptor type-1A (BMPR1A, Homo sapiens, UniProt P36894) | binding | 100
Phosphatidylinositol 4,5-bisphosphate 3-kinase catalytic subunit alpha isoform (PIK3CA, Homo sapiens, UniProt P42336, E545K) | cell-free assay | 89
Cyclin-dependent kinase 16 (CDK16, Homo sapiens, UniProt Q00536) | binding | 100
Insulin-like growth factor 1 receptor (IGF1R, Homo sapiens, UniProt P08069) | cell-free assay | 90
ALK tyrosine kinase receptor (ALK, Homo sapiens, UniProt Q9UM73) | cell-free assay | 100
Tyrosine-protein kinase ABL1, non-phosphorylated (ABL1, Homo sapiens, UniProt P00519) | binding | 85
Protein-tyrosine kinase 2-beta (PTK2B, Homo sapiens, UniProt Q14289) | cell-free assay | 100
Tyrosine-protein kinase ZAP-70 (ZAP70, Homo sapiens, UniProt P43403) | binding | 100
Maternal embryonic leucine zipper kinase (MELK, Homo sapiens, UniProt Q14680) | binding | 100

Study 3 — effect on: enzyme activity; action: inhibitor; tested at: 0.5 µM; reference: control
SMILES: c1cc(-c2cnn3cc(-c4ccc(OCCN5CCCCC5)cc4)cnc23)ccn1
target | remaining activity
Serine/threonine-protein kinase Sgk2 (SGK2, Homo sapiens, UniProt Q9HBY8) | 84%
Cyclin-dependent kinase 2, with cyclin E (CDK2, Homo sapiens, UniProt P24941) | 77.5%
Serine/threonine-protein kinase PAK 6 (PAK6, Homo sapiens, UniProt Q9NQU5) | 94.2%
Calcium/calmodulin-dependent protein kinase kinase 1 (CAMKK1, Homo sapiens, UniProt Q8N5S9) | 59.2%
Tyrosine-protein kinase JAK1 (JAK1, Homo sapiens, UniProt P23458) | 101%
Ribosomal protein S6 kinase alpha-3 (RPS6KA3, Homo sapiens, UniProt P51812) | 85.3%
Dual specificity protein kinase CLK1 (CLK1, Homo sapiens, UniProt P49759) | 20%
Mitogen-activated protein kinase kinase kinase 20 (MAP3K20, Homo sapiens, UniProt Q9NYL2) | 11.7%
Casein kinase I isoform delta (CSNK1D, Homo sapiens, UniProt P48730) | 22.6%
Dual specificity protein kinase CLK2 (CLK2, Homo sapiens, UniProt P49760) | 21.3%
Casein kinase I isoform epsilon (CSNK1E, Homo sapiens, UniProt P49674) | 51.6%
Tyrosine-protein kinase receptor TYRO3 (TYRO3, Homo sapiens, UniProt Q06418) | 91.6%
SRSF protein kinase 1 (SRPK1, Homo sapiens, UniProt Q96SB4) | 97.9%
Serine/threonine-protein kinase PAK 1 (PAK1, Homo sapiens, UniProt Q13153) | 89.8%
Muscle, skeletal receptor tyrosine-protein kinase (MUSK, Homo sapiens, UniProt O15146) | 47.3%
Insulin-like growth factor 1 receptor (IGF1R, Homo sapiens, UniProt P08069) | 94%
Calcium/calmodulin-dependent protein kinase type 1 (CAMK1, Homo sapiens, UniProt Q14012) | 90.8%
Tyrosine-protein kinase Tec (TEC, Homo sapiens, UniProt P42680) | 152%
Vascular endothelial growth factor receptor 1 (FLT1, Homo sapiens, UniProt P17948) | 59.5%
Serine/threonine-protein kinase SIK2 (SIK2, Homo sapiens, UniProt Q9H0K1) | 46.4%
Ephrin type-A receptor 2 (EPHA2, Homo sapiens, UniProt P29317) | 36.2%

Single results of other studies
Compound | tested on | test | test system | setting | scale | measurement | value
COc1ccc(-c2c(Nc3ccccn3)[nH]c3c(C4=CCCCC4)c(-c4ccccc4)nn3c2=O)cc1 | – | – | human, plasma | oral, 200 mg twice daily | – | dose-normalised AUC(0-t) | 1170 ng·h/mL/mg and 1210 ng·h/mL/mg and 1270 ng·h/mL/mg
CC(=O)N[C@@H](Cc1c[nH]c2ccccc12)C(=O)N[C@@H](CCC(=O)C=[N+]=[N-])C(=O)OC(C)C | – | UPLC-MS/MS | EL4 tumor, C57BL/6 CES1-/- mice, tumor | subcutaneous, 0.3 mg/kg DON equivalent daily, 5 days | higher = more metabolite | sarcosine level | 2.85e+06 a.u. and 4.35e+06 a.u. and 4.75e+06 a.u. and 3.76e+06 a.u. and 2.87e+06 a.u. and 3.01e+06 a.u.
CC(C)S(=O)(=O)c1ccc2nccc(Nc3ccc4sc(C5CCCC5)nc4c3)c2c1 | Receptor-interacting serine/threonine-protein kinase 3 (RIPK3, Homo sapiens, UniProt Q9Y572) | kinase activity, inhibitor, ADP-Glo | – | 0.137 nM, 1 h | – | inhibition | 18.1%
